Measured values from different studies.
Several values in a cell are separate wells, animals, samples, runs or records. ± marks the error that the study gave.

Molecule | cell line | test | conditions | EC50
CC(C)C[C@@H](C=O)NC(=O)[C@H](CC(C)C)NC(=O)[C@H](CC(C)C)NC(=O)OCc1ccccc1 | HeLa (transiently transfected) | N-cyclin B-luciferase fusion level |  | 5 µM
CC12OC(=O)C1(C(O)C1C=CCCC1)NC(=O)C2CCN=[N+]=[N-] (stereo not shown) | Jurkat | DNA fragmentation, propidium iodide flow cytometry | 24 h | 4.5 µM
CCC[C@@H](C)[C@H](O)[C@H](C)[C@H]1OC(=O)[C@H]([C@@H](C)O)NC(=O)[C@H](C(C)C)OC(=O)[C@H](C)[C@H](O)[C@H]([C@@H](C)CC)NC(=O)[C@@]2(C)CSC(=N2)[C@@]2(C)CSC(=N2)c2csc(n2)C[C@H](OC)[C@@H]1C | mouse neocortical neurons | spontaneous Ca2+ oscillations, inhibitor, fluo-3 Ca2+ imaging |  | 0.0456 µM
COc1cc(Nc2ncc(F)c(Nc3ccc4c(n3)NC(=O)C(C)(C)O4)n2)cc(OC)c1OC | HUVEC | VEGF-dependent tube formation |  | 0.0473 ± 0.011 µM
CCC(=O)CCCCC[C@@H]1NC(=O)[C@H]2CCCCN2C(=O)[C@H]([C@@H](C)CC)NC(=O)[C@H](Cc2cn(OC)c3ccccc23)NC1=O | HFF | CellTiter proliferation |  | 0.165 ± 0.033 µM
rat urocortin I | rat hippocampal pyramidal neurons | CREB phosphorylation, agonist, item: pCREB Ser133 | 15 min | 0.004 µM
[Cl][Au].c1ccc(P(c2ccccc2)c2ccccc2)cc1 | BT-474 | cell growth or viability, resazurin | 72 h | 3.32 µM
OO | ARPE-19 | cell death, ATP content | 16 h, added: TNF-alpha 10 ng/mL | 650 µM
N.N.[Cl][Pt][Cl] | HAP1 | cell growth or viability |  | 0.31 µM
F[P-](F)(F)(F)(F)F.F[P-](F)(F)(F)(F)F.[Ru+2].c1ccc(-c2ccccn2)nc1.c1ccc(-c2ccccn2)nc1.c1csc(-c2ccc(-c3cc4cccnc4c4ncccc34)s2)c1 | SK-MEL-28 | cell viability, resazurin | 16 h drug-to-light interval, added: red light 625 nm, 100 J/cm2 | 14.3 µM and ~14 µM
CC(C)(C)c1cc(C=C(C#N)C#N)cc(Br)c1O | human PBMC | T cell expansion, resazurin | 7 days, added: concanavalin A 2 µg/mL | 9.83 µM
O=c1c(O)c(N2CCN(Cc3ccc(Br)cc3F)CC2)oc2ccccc12 | HFL1 transfected with N protein | Smad reporter gene, inhibitor, CAGA luciferase reporter | 24 h, added: N protein | 2.99 µM
O=S(=O)(F)Cc1ccccc1 | SH-SY5Y | cell degeneration | concentration not given | > 1000 µM

Excerpt of the above:
Molecule | cell line | test | conditions | EC50
O=S(=O)(F)Cc1ccccc1 | SH-SY5Y | cell degeneration | concentration not given | > 1000 µM
